# Assay results gathered from unrelated publications.
# A part holds a random share of what one study measured. Positions count from the first letter of the parent shown.
# UniProt P51965, sequence (whole entry, looked up): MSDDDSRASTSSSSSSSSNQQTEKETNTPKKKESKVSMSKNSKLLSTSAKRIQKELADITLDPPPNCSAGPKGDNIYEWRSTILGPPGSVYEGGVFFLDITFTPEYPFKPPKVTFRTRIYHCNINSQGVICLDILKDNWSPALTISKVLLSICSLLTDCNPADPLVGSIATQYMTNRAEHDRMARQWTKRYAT
# UniProt P62256, sequence (whole entry, looked up): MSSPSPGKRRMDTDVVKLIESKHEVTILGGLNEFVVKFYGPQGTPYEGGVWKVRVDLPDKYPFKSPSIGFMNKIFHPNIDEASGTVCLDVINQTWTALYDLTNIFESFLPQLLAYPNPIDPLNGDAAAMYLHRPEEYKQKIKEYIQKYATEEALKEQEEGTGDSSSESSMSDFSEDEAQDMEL
# UniProt Q15819, sequence (whole entry, looked up): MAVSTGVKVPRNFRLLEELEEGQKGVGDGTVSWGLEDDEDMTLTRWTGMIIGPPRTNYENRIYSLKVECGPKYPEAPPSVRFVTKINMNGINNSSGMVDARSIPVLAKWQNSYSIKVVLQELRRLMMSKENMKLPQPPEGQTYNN
# UniProt Q96LR5, sequence (whole entry, looked up): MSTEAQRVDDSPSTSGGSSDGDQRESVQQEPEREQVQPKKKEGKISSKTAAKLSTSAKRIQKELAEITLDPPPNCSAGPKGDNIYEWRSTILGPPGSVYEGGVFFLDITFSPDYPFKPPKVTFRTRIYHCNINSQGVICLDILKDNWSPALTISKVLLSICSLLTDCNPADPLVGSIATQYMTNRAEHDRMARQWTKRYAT
# UniProt P60604, sequence (whole entry, looked up): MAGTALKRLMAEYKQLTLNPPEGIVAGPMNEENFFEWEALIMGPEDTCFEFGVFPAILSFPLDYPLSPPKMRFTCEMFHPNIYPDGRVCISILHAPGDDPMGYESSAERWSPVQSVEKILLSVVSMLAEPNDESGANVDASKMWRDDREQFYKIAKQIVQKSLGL
# UniProt P49427, sequence (whole entry, looked up): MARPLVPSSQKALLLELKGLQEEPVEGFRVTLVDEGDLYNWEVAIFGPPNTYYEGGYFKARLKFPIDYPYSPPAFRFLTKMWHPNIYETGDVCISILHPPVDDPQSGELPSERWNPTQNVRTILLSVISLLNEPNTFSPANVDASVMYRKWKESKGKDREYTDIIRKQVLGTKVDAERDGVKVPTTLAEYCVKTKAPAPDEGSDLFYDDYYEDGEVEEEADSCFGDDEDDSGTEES
# UniProt O14933, sequence (whole entry, looked up): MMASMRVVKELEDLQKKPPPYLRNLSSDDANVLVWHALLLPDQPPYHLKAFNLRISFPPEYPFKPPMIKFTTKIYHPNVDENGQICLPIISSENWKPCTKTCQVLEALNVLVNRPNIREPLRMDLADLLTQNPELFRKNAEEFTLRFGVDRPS
# UniProt P61088, sequence (whole entry, looked up): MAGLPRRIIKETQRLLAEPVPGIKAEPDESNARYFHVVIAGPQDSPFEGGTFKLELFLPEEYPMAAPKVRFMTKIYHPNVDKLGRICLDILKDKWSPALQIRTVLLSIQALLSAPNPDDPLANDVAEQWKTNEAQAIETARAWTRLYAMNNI
# UniProt Q5VVX9, sequence (whole entry, looked up): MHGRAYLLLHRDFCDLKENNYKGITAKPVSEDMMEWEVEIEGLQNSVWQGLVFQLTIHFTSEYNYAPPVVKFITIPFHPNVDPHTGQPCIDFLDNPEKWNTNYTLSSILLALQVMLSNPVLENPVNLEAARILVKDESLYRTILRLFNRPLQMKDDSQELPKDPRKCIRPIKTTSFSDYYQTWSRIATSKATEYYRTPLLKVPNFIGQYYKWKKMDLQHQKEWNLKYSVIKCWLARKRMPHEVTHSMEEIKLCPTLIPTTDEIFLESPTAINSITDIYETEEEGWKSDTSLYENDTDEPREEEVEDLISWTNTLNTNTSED
# UniProt Q8WVN8, sequence (whole entry, looked up): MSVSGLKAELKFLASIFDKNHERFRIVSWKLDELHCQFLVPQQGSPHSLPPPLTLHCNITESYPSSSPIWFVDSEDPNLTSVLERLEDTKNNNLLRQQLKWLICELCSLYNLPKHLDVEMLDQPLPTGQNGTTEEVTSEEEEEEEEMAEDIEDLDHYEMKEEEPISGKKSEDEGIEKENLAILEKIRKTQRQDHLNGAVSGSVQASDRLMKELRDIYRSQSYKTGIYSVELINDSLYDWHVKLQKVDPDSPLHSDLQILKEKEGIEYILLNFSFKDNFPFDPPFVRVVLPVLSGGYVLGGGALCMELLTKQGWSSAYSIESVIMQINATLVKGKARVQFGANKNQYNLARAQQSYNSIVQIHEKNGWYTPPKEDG
# UniProt Q13404, sequence (whole entry, looked up): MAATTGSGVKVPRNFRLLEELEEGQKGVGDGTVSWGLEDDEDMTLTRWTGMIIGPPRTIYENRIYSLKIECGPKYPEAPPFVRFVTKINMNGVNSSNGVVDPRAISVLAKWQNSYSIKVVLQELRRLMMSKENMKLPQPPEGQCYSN

# Block 1 — method: protein-binding microarray; molecule type: double-stranded DNA, one strand shown; matrix: in vitro; tested at: 2540 nM top; notes: 60-bp whole probe; with: salmon DNA 0.4 mg/ml; baseline: random background probes; direction: higher = stronger binding; all sequences stand within: GCCTAGCAC … GTCTTGATTCGCTTGACGCTGCTG
# Target: Interferon regulatory factor 3, full length, phosphomimetic (IRF3, Homo sapiens, UniProt Q14653, residues 1-427, S386D/S396D/S398D/S402D/T404D/S405D)
# Target sequence (chain): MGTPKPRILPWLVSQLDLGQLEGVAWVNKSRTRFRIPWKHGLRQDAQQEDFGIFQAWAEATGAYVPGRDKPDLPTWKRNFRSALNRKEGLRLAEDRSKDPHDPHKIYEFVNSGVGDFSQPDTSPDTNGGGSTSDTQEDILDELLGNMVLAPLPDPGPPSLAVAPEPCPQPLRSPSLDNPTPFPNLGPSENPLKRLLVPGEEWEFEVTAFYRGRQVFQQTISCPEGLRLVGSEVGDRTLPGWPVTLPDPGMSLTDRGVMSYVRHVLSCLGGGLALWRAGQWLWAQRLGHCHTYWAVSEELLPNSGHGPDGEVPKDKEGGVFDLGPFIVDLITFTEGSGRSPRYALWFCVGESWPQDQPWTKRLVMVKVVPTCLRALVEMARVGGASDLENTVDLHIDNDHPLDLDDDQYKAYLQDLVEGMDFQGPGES
Oligonucleotide,fitted relative affinity
TCAGTTCTCAGCTTGGGACTGTGCTAG,1.29 z-score
TTAGCACTGGGGTATCGATTAGTGCTA,-0.574 z-score
GACGGACGGCTTTTCCTGACGTGCTAG,-0.504 z-score
GACGGACTGGGTCTAGGGACGTGCTAG,-0.936 z-score
TGGGTTTTCAGCTGTTTTTCTGTGCTA,0.0393 z-score
GACGGTTTCGGGCATCGGGACGTGCTA,2.77 z-score
TTAGGTTTCGGGTATAGGTTAGTGCTA,3.72 z-score
TTAGGTTTCCTTCTCCTCTAGTGCTAG,10.3 z-score
TTTGGACTGGACTTTCGGTTAGTGCTA,0.959 z-score
GACGAACTGGGGTTTCGATACGTGCTA,2.07 z-score
TCATTTTTTTTTTTTTTACTGTGCTAG,1.08 z-score
TTAGGTTTCGGTTTCGGTTCGTGCTAG,12 z-score
GACGCTATCCTACTGCTGACGTGCTAG,0.869 z-score
GACGATTTCGACTTTCGGGACGTGCTA,1.98 z-score
ATAGGACTGGGTTTCGGTTAGTGCTAG,3.29 z-score
GACGATATCAGTTTCCAGACGTGCTAG,4.32 z-score
GACGGTTTCGGGTATCGGGACGTGCTA,4.69 z-score
TTAGGTCTCTGTCTCGGTTAGTGCTAG,0.452 z-score
GACGGACTGGACTTTCTGGACGTGCTA,-0.383 z-score
GACGGTCTCCAACTGCTGACGTGCTAG,0.854 z-score
TCCTAATTCTCTTTTCACTTGTGCTAG,2.41 z-score
TTAGGTTTCGGGTTTCTGTTAGTGCTA,5.4 z-score

# Block 2 — target: JUN, bZIP domain (human); method: DHFR protein complementation; matrix: yeast; baseline: wild-type JUN-FOS pair; direction: higher = stronger binding
# Notes: single substitutions, most at no-binding floor
# Starting sequence: JUN, bZIP domain (human); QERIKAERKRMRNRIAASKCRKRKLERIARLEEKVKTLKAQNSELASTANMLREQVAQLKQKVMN; partner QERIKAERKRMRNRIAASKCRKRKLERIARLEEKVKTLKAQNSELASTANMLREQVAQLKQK
Substitution,binding fitness [natural log]
Q55L,-0.465
A46T,-0.0655
R30D,-0.129
Q58R,-0.417
V35M,-0.716
S43R,-0.0675
Q41E,-0.134
N42E,-0.957
S43Y,-0.294
A49V,0.149
K39W,-0.888
K34R,-0.113
R53G,-0.817
K36V,-0.347
E44V,-0.334
K36Q,-0.323
A49L,-0.446
R30T,-0.0804
S43C,-0.284
E44D,-0.5
N42R,-0.72
A57S,-0.284
I28S,-1.06
T37S,-0.245
S43T,-0.109

# Block 3 — Molecule: RNF167 RING domain (UniProt Q9H6Y7); method: yeast two-hybrid; matrix: yeast; notes: mostly zero background; baseline: not given; direction: higher = stronger interaction
target,lacZ reporter activity
CDC34 UBC core domain (UniProt P49427),0
UBE2V1 UBC core domain (UniProt Q13404),0
UBE2N UBC core domain (UniProt P61088),9370
UBE2G2 UBC core domain (UniProt P60604),8830
UBE2H UBC core domain (UniProt P62256),0
UBE2U UBC core domain (UniProt Q5VVX9),2500
UBE2Q2 UBC core domain (UniProt Q8WVN8),0
UBE2V2 UBC core domain (UniProt Q15819),0
UBE2L6 UBC core domain (UniProt O14933),0
UBE2E2 UBC core domain (UniProt Q96LR5),0
UBE2E1 UBC core domain (UniProt P51965),12300

# Block 4 — method: DHFR PCA, deep sequencing; matrix: yeast; with: (+)-ABA 200 µM; baseline: wild-type fitted maximum; direction: higher = stronger binding
# Target: ABI1, truncated, D143A, DHFR fusion (Arabidopsis thaliana)
# Notes: methotrexate growth selection, single substitutions
# Starting sequence: PYL1, truncated, DHFR fusion (Arabidopsis thaliana); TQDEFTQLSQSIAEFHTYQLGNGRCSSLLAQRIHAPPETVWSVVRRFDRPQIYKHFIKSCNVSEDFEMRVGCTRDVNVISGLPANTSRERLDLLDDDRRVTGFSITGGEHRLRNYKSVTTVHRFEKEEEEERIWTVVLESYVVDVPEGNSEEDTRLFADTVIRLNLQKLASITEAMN; partner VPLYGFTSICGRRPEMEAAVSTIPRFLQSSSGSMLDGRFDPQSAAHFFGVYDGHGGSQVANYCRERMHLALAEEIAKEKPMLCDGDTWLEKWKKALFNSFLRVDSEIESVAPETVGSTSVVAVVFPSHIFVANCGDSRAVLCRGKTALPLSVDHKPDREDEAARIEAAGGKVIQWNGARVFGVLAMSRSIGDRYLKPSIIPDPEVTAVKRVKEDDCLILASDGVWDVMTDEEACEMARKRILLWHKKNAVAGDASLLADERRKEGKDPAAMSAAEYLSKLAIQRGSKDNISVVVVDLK
Substitution,relative binding score [%]
I162Q,-1.73
S150M,64
G23I,68
V136L,95.9
L166G,-4.22
T160K,85.6
R69L,96
I33E,-2.11
A170C,94.8
R74A,11.6
Y18V,88.5
V40Q,-31.7
S27P,-18.7
N22T,98.2
D95K,55.1
A84S,63.1
F103V,16.6
R32A,82
D144N,78.4
C60M,46.6
E125F,105

# Block 5 — target: CCNB3, cyclin fold, Cln2 fusion (human); method: yeast growth competition, sequencing; matrix: yeast; notes: weak parent motif; baseline: not given; direction: higher = stronger binding
# Starting sequence: SAMHD1 docking peptide (human); ASKSRVQLFKDDP; partner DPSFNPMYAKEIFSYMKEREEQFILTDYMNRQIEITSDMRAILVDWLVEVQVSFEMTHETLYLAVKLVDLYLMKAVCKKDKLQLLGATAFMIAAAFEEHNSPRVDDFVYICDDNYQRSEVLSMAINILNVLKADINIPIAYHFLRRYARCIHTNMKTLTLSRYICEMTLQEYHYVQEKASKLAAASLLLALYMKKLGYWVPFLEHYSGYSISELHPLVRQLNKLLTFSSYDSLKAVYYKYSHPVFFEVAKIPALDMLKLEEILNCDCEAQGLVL
Substitution,normalised enrichment score
AKKSRVQLFKDDP [S2K],-0.321
ALKSRVQLFKDDP [S2L],0.0669
ASKSTVQLFKDDP [R5T],-0.247
ASQSRVQLFKDDP [K3Q],-0.237
ASKSRVQLFKDEP [D12E],0.189
ASKSRNQLFKDDP [V6N],-0.0433
ASKMRVQLFKDDP [S4M],0.00536
ASKSRPQLFKDDP [V6P],-0.597
ASKSRVQLFQDDP [K10Q],-0.187
ASKSFVQLFKDDP [R5F],-0.0342
ASKSPVQLFKDDP [R5P],-0.425
ASKSRMQLFKDDP [V6M],0.092
ASKSRVQLGKDDP [F9G],0.0416
ASFSRVQLFKDDP [K3F],0.213
ASKSRVQLFPDDP [K10P],-0.3
ASKSRVQLFKMDP [D11M],0.289
ASKSRVYLFKDDP [Q7Y],0.0911
ASKSRVQLFLDDP [K10L],0.0917

# Block 6 — method: RNA Bind-n-Seq; molecule type: RNA; matrix: in vitro; tested at: 365 nM; baseline: no-protein control; direction: higher = stronger binding
# Target: RNA binding protein fox-1 homolog 2, RRM domain, GST-SBP tag (RBFOX2, Homo sapiens, UniProt O43251-10, residues 100-194)
# Notes: natural RNA segment, single round, ends assumed
# Residues (chain): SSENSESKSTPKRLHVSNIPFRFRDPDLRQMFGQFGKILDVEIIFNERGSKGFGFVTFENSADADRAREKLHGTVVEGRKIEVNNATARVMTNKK
Oligonucleotide,RBNS enrichment (R)
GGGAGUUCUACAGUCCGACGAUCCGGUUCAGGGGGGGAGUAGGAAGUAAAACCGUGGAGAGGCAAGUGAGAAACGCAUACUCUCCCCGUUCAGUGUUGUCUGUGCUUUGUUUGGAUCCACGCCUUGCGUGGGAUGGAAUUCUCGGGUGCCAA,1.25
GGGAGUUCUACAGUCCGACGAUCGGGGGGUGAGAAGACAAGAUGAAGAAAAGCCUUACAUUUCAGUUUCUUCAUCGGUUGGAUUGGAUGCUUACAGGGUUUUUCUUGUAACAUUUAUAAGUGCUGCUUACAUCUGGAAUUCUCGGGUGCCAA,0.5
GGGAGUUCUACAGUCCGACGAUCUGCUGUGUUUUCUUCAGAGCAAGAAGGUUAUAUUUUUUAAAAUUUACUUAGUAAUGCACAUUCAAAACACACAUCAAGUCUUCAGGAUAAAGUUCAAAACCGCUGUCAUGUGGAAUUCUCGGGUGCCAA,0.353
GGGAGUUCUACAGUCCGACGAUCUCACUAAAUGUUUGUUUUUGCUCAUCUCUUUCUGAGGUCAUCUGCAGAGAGUGCCCCAUGCCUUCUUUAAGAAGUCCCUCAUUAAGCCGCAGGAACAAUGGAAAACUAUUUGGAAUUCUCGGGUGCCAA,0.313
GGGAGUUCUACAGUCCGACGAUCACCCUCCUUUUUUUCCCUAUCACUGAAGCUUUUUAGUGCAUUAGUGGGGAGGAGGGUGGGGAGACAUAACCACUGCUUCCAUUUAAUGGGGUGCACCUGUCCAAUAGGCGUGGAAUUCUCGGGUGCCAA,0.257
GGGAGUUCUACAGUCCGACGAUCAAAAACCCACUAAAGUGAAGCAUUUCUUGAUUCCCUUUUCCAUGCUGGUGCCUAGCCCGGGUGAGUGAGGCUGGCUGUGUUGGCCUGGGUGACUUGUGGUUGUAGAGUUGUGGAAUUCUCGGGUGCCAA,0.413
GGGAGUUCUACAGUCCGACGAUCGGGUUUCCAGCCAGGCCUCGGGGUCAUCUUUUCACCAGGAGCAAACCCAAGUCUUAGUUGCUACAAGAAAAUCCCCUGGAAGUACUGGGGGCCAGGUUCCCCAGACAGCAUGGAAUUCUCGGGUGCCAA,1.92
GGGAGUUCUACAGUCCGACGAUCAUAAACCUUAAGUGAAAUGAAAGAAAAAGAUCUAUUGCAGAUAUCUGAUGGAUGUAGUUUUCUUUUUUUAAAUUAGAAAUGCCACUUCUAUUGUAUUGUCUCACACAUGCUGGAAUUCUCGGGUGCCAA,0.704
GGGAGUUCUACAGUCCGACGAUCACCUUGACGGAGGAAACUCCUCAGACGCAUGAAGCUCUUGACCUCCGUUUGCUUUGGAAAAAACAAAACAAAACAAAACAAAACAAAAAACAAAAACACUGCGCAUUUCAUGGAAUUCUCGGGUGCCAA,3.53
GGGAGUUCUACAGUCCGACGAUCGGAUUUCCCAGUGAAAUCAGAUUUGGAAAGAAAAGAGAGAUAGUUCUCCGGGAUGCAUAGAUUCAUGAUUUAUCUACUUUUGAAAUGUGGGCUUCUUCAUCUUUACGUUCUGGAAUUCUCGGGUGCCAA,0.512
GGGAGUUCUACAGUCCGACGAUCGCUUAGAGCAGGGGGAAUGGCAGGGAUUAAGAGCUCAGCUCAGAGCCAGUUACCAAGAUGGAAUGGAGUUGUGACCCAGUAACUGUGUCACGAGAGACCAUGUAUAUAAAUGGAAUUCUCGGGUGCCAA,0.78
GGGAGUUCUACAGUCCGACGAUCAUUGAUAGCUCUUAAAGGAGUGAAAAUCUAAAAUAGUAAAUUUCAAUGUUAAGUGUCUGCUUUAUGGGCAUAUAUAAAAGUAGACACAUUUCAUUUGUUAAUUUAGUUGUUGGAAUUCUCGGGUGCCAA,0.766

# Repeated from above (block 4):
Substitution,relative binding score [%]
A84S,63.1
R32A,82
S27P,-18.7
T160K,85.6
G23I,68
A170C,94.8
N22T,98.2
Y18V,88.5
V136L,95.9
S150M,64
V40Q,-31.7
I162Q,-1.73
R69L,96
E125F,105
D144N,78.4
R74A,11.6
D95K,55.1
